Measured values from different studies.
Each line is one published result; not all experiments were run side by side. Several values in a cell are separate wells, animals, samples, runs or records. Numbers after ± are the reported error.

Under “objective response rate”, `CCN1CCN(Cc2ccc(Nc3ncc(F)c(-c4cc(F)c5nc6n(c5c4)[C@H](C)CCC6)n3)nc2)CC1` is recorded as 0% (human advanced solid tumours; 400 mg, phase Ia monotherapy RECIST 1.1).
`CC(c1cc2ccccc2s1)N(O)C(N)=O` (stereo not shown) has a PGE2 level of 20 ± 7 pg/mL (human blood; 3 µM, added: A23187).
For `CC(=O)N[C@@H](CCC(=O)O)C(=O)O`, “z-scored log2 fold change” read 0.393 (binding, equilibrium dialysis LC-MS; 5 µM, thermostabilized A2AR-BRIL construct; relative to: no-protein control, direction not given).
For `O=C(COc1ccc(N2C(=O)[C@@H]3[C@@H]4C=C[C@@H]([C@H]5C[C@@H]45)[C@@H]3C2=O)cc1)c1cc(Cl)cc(Cl)c1`, “plasma EPC level” read “increased” (mice, plasma; 20 mg/kg, single dose).
`Nc1ncnc2c1ncn2[C@H]1C[C@H](O)[C@@H](COP(=O)(O)O)O1`: “z-scored log2 fold change” -0.106 (binding, equilibrium dialysis LC-MS; 5 µM, thermostabilized A2AR-BRIL construct; relative to: no-protein control, direction not given).
Under “log2 fold change”, `c1ccc(-c2n[nH]cc2-c2ccnc3ccccc23)nc1` is recorded as 0.972 (kinase binding, competitor, MIB/MS competition, refers to: KIN2; Candida albicans cell lysate; 100 nM; relative to: DMSO).
Under nociceptive response, `Cc1ccc(C(=O)Nc2ccnc(S(N)(=O)=O)c2)c(N2CCCC(F)(F)CC2)n1` is recorded as “no effect” (noxious stimulus test; rhesus macaque; 3 and 10 mg/kg; relative to: vehicle).
With `Cn1cc([C@H]2C[C@H]3CSC(N)=N[C@@]3(c3ccc(F)cc3F)CO2)cn1` the Aβ42 level was 0.51 ng/g (refers to: Aβx-42; Mus musculus wild-type, brain; subcutaneous, 50 mg/kg, 18 h).
`N#Cc1ccn2c(-c3ccncc3)c(-c3ccc(F)cc3)nc2c1`: “log2 fold change” -0.0632 (kinase binding, competitor, MIB/MS competition, refers to: NPR1; Candida albicans cell lysate; 1 µM; relative to: DMSO).
For `Cn1cc(Nc2nccc(-c3ccc4c(c3)CN(C3COC3)CC[C@H]4NC(=O)c3cn(C(C)(C)C)nn3)n2)cn1`, “pathway activation z-score” read 2.24 (refers to: Oxidative Ethanol Degradation III; splenic B cells, Mus musculus; 30 mg/kg, added: IgD activation; relative to: vehicle, direction not given).
`COc1cc(O)c(CC=C(C)C)c(O)c1C(=O)/C=C/c1ccc(O)cc1` — result for plasma insulin: “decreased” (male Tac:SW conventional mice; in high-fat diet, dose not given; relative to: high-fat diet alone).
`CO[C@H]1CC[C@H](N2C(=O)CNc3ncc(-c4ccc(C(C)(C)O)nc4)nc32)CC1`: “p4EBP1 change from baseline” -40.2% (flow cytometry; stimulated T cells, human, blood; 30 mg single dose, 1.5 h, mean; relative to: baseline).
Under “z-scored log2 fold change”, `N[C@@H](CC(=O)O)C(=O)N[C@@H](Cc1ccccc1)C(=O)O` is recorded as 0.097 (binding, equilibrium dialysis LC-MS; 5 µM, thermostabilized A2AR-BRIL construct; relative to: no-protein control, direction not given).
`N#Cc1ccc2c(c1)[C@H]1CCCN(C(=O)c3ccc4[nH]cnc4c3)[C@H]1C2`: “change from baseline” 0.01 pmol/L (refers to: fasting C-peptide; human, Phase II trial; oral, 80 mg once daily, day 28, adjusted mean, SE).
With `CC(C)NCC(O)c1ccc(O)c(O)c1` (stereo not shown) the sarcomere length was 1.72 µm (ventricular cardiomyocytes, C57BL/6 mouse; dose not given, 0.744 s).
For `COc1cc2cc(-c3ccc(CC(=O)Nc4cc(C(C)(C)C(F)(F)F)no4)cn3)cnc2cc1OC`, “best overall response PR” read 10% (RECIST v1.1; human other RET-altered solid tumours; 75 mg, phase I).
Under “z-scored log2 fold change”, `N[C@@H](C[C@@H](O)C(=O)O)C(=O)O` is recorded as 0.394 (binding, equilibrium dialysis LC-MS; 5 µM, thermostabilized A2AR-BRIL construct; relative to: no-protein control, direction not given).
For `NC(=O)c1cnc2[nH]ccc2c1N[C@@H]1[C@@H]2CC3C[C@H]1C[C@@](O)(C3)C2`, the percent change was -0.68% (CD4+ CD28+ naive T cells, flow cytometry; Caucasian humans, peripheral blood; 60 mg single dose; relative to: baseline).
`COc1cc(C(O)C(=O)O)ccc1O` (racemic) — result for “z-scored log2 fold change”: -1.18 (binding, equilibrium dialysis LC-MS; 5 µM, thermostabilized A2AR-BRIL construct; relative to: no-protein control, direction not given).
`C[C@H](CS)C(=O)N1CCC[C@H]1C(=O)O` gave a writhing count of 48 and 45 and 41 and 53 and 68 and 33 (acetic acid writhing test; male ICR-CD1 mice; intracerebroventricular, 100 µg/mouse, 30 min, added: 1% acetic acid i.p.).
`O=C(O)Cc1ccc(O)cc1` gave a radical scavenging of 64.9 ± 1.33% (ABTS radical; 300 µg/mL).
`OC(CCN1CCCCC1)(c1ccccc1)C1CC2C=CC1C2` (stereo not shown) — result for “EEG Alpha1-power Pz-O1”: 5.8 µV² (resting-state EEG; healthy elderly humans; oral, 2 mg, eyes open, LS mean).
`Cc1cc(C)c(CNC(=O)c2cc(Cl)c3c(c2C)O[C@@](C)([C@H]2CC[C@H](N(C)C)CC2)O3)c(=O)[nH]1` — result for “best overall response CR”: 29% (modified 2009 ATLL criteria; human, relapsed/refractory adult T-cell leukaemia-lymphoma; dose not given).
The plasma glucagon of `C[C@@H](O)CCOC(=O)C[C@@H](C)O` is reported as 19 pM (human; oral drink, dose not given, 30 min post dose, median, all participants).
`NC(=O)NCc1ccc(O)cc1` gave a radical scavenging of 9.59 ± 0.71% (DPPH radical; 300 µg/mL).
For `C[C@@H](NC(=O)N1C(=O)[C@H](Cc2ccnc(N)c2)[C@H]1C(=O)O)C1CCCCC1`, the aPTT AUEC was 205 (human; iv infusion, 1.0 mg/kg/h, 24 h, unit not given; relative to: baseline).
`Cc1ccc([C@@H]2O[C@H](CO)[C@@H](O)[C@H](O)[C@H]2O)cc1Cc1ccc(-c2ccc(F)cc2)s1` — result for “change in fasting serum insulin”: -2.2 µU/mL (Japanese type 2 diabetes patients; 400 mg, day 2; relative to: day 1).
`CN(C)C(=O)Oc1cccc([N+](C)(C)C)c1` gave a train-of-four ratio of 4.84 (neuromuscular block reversal; rat; dose not given, 0.5 (unit not given), added: cisatracurium; relative to: T1 twitch).
`C[C@H](Oc1ccc(Br)cc1-c1ccon1)C(=O)O`: “difference from placebo” 0.573% (response latency; human, tibialis anterior muscle; 200 mg, 30 Hz+30 s).
Under “patients with inhibition above threshold”, `CC(=O)Oc1cc2c(s1)CCN(C(C(=O)C1CC1)c1ccccc1F)C2` (stereo not shown) is recorded as 0% (platelet aggregation, light transmission aggregometry; human patients, platelet-rich plasma; dose not given, 30 min, inhibition threshold 90%, added: ADP 5 µM).
For `O=P(O)(O)C(Cl)(Cl)P(=O)(O)O`, the Iba1-positive area was 0.54% (immunostaining; mouse, sham-operated, meninges; dose not given, day 7; relative to: total area).
Under “percent change from baseline”, `C[C@H]1C[C@H]2CSC(N)=N[C@@]2(c2nc(NC(=O)c3ccc(OC(F)F)cn3)cs2)CO1` is recorded as -34.1% (refers to: Aβx-40; healthy adults, plasma; 3 mg single dose, 4 h post-dose; relative to: placebo).
For `OCC(O)CO`, “plasma FGF21 level” read 329 pg/mL and 363 pg/mL and 289 pg/mL and 193 pg/mL and 412 pg/mL and 285 pg/mL and 218 pg/mL and 137 pg/mL (ELISA; female Slc25a13 knockout mice, serum; oral in drinking water, 5 % w/v, 2 days).
`O=C(O)CNC(=O)Cc1ccccc1` gave a sarcomere length of 1.68 µm (ventricular cardiomyocytes, C57BL/6 mouse; dose not given, 0.276 s).
Under “z-scored log2 fold change”, `N[C@@H](Cc1ccc(O)c(I)c1)C(=O)O` is recorded as 0.495 (binding, equilibrium dialysis LC-MS; 5 µM, thermostabilized A2AR-BRIL construct; relative to: no-protein control, direction not given).
The BV/TV of `Cc1c(C)n(Cc2cccc(OC(C)(C)C(=O)O)c2)c2ccc(C(=O)N[C@@H](C)c3ccc(C(C)(C)C)cc3)cc12` is reported as 14.7 ± 1% (C57BL/6 mice, diet-induced obese, proximal tibia; dose not given).
For `NC(=O)c1cccnc1`, “z-scored log2 fold change” read 0.119 (binding, equilibrium dialysis LC-MS; 5 µM, thermostabilized A2AR-BRIL construct; relative to: no-protein control, direction not given).
`CC(C)(C)c1ccc(/C=C/C(=O)Nc2ccc3c(c2)OCCO3)cc1` gave a licking duration of 0 s (nociceptive behaviour; mouse; intraplantar, 10 µg).
`N[C@@H](CCCCNC(=O)CCCC[C@@H]1SC[C@@H]2NC(=O)N[C@@H]21)C(=O)O` — result for “z-scored log2 fold change”: 0.376 (binding, equilibrium dialysis LC-MS; 5 µM, thermostabilized A2AR-BRIL construct; relative to: no-protein control, direction not given).
The inhibition of `NCC(=O)Nc1cncc(-c2nn3c(=O)cc(N4CCNCC4)nc3s2)c1` is reported as 12.3% (ADP-induced platelet aggregation, light transmission aggregometry; human, stable CAD on aspirin, ex vivo platelets; subcutaneous, 0.05 mg/kg, 240 min post-dose, mean value, added: ADP 20 µM).
`C=CCn1c(=O)c2cnc(Nc3ccc(N4CCN(C)CC4)cc3)nc2n1-c1ccc2c(n1)[C@@](O)(CC)CC2` — result for “tumour volume difference”: 993 ± 36.5 mm3 (HT-29 xenograft, BALB/c nude mice; oral, 60 mg/kg once daily x 22, day 21).
`CC(C)c1ncc(C(=O)N2CCOC3(CCN(Cc4ccc(F)c(CCNC[C@H](O)c5ccc(O)c6[nH]c(=O)sc56)c4)CC3)C2)s1` — result for “trough FEV1 change”: 85 mL (COPD patients; 172 µg single, 24 h, day 1; relative to: baseline, placebo-corrected).
`CC1(C)CCC(c2ccc(Cl)cc2)=C(CN2CCN(c3ccc(C(=O)NS(=O)(=O)c4ccc(N[C@H](CCN5CCOCC5)CSc5ccccc5)c(S(=O)(=O)C(F)(F)F)c4)cc3)CC2)C1` gave an EC50 of 461 nM (cell killing, flow cytometry PI exclusion; canine blood CD21+ B cells, dog 33; 24 h).
`CC(C)[C@H](NC(=O)[C@H](Cc1ccc(O)cc1)NC(=O)[C@H](Cc1ccc(O)cc1)NC(=O)[C@@H]1CCCN1C(=O)[C@H](CCC(=O)O)NC(=O)[C@H](CCC(=O)O)NC(=O)[C@H](Cc1c[nH]c2ccccc12)NC(=O)[C@@H]1CCCN1C(=O)[C@@H](NC(=O)[C@H](CCC(N)=O)NC(=O)c1ccc2c(c1)C(=O)OC21c2ccc(O)cc2Oc2cc(O)ccc21)C(C)C)C(=O)N[C@H](C(=O)N[C@@H](CCCCN)C(=O)N[C@@H](CCCCN)C(=O)N[C@@H](CO)C(=O)N[C@@H](CO)C(=O)NCC(=O)NCC(N)=O)C(C)C` — result for “share of responses”: 53.8% (nerve penetration depth; human head and neck surgery, nerves; 500 mg, not improved; relative to: white light).
`CNCc1cc(-c2ccccc2F)n(S(=O)(=O)c2cccnc2)c1` — result for “total acid output”: 238 ± 29.1 µEq/3 h (basal gastric acid secretion; pylorus-ligated rat; oral, 2 mg/kg).
`C[C@@H]1O[C@@H](Oc2ccc(CC#N)cc2)[C@H](O)[C@H](O)[C@H]1O` gave a radical scavenging of 7.25 ± 0.98% (DPPH radical; 300 µg/mL).
`C[C@H](NC(=O)c1c(C(F)F)nn(C)c1Oc1cccc(C(F)(F)F)c1)c1ccc(C(=O)O)cc1` — result for “objective response rate”: 0% (irRECIST; human, advanced tumours; 125 mg).
For `COc1ccc(-c2cncc(N[C@@H](C)c3cccc(NC(=O)c4cncc(C)c4)c3)n2)cc1OC`, “delta delta Ct” read -1.28 (refers to: rno-miR-490-3p; rat SU5416/hypoxia model, lung; dose not given, unit not given; relative to: SU5416/hypoxia vehicle).
`CN(C(=O)n1cnc(-c2ccc[n+]([O-])c2)c1)C1CCCCC1` gave an AUC(0-t) of 310 ng·h/mL (refers to: LEA; human, plasma; 10 mg single dose).
